Measurements from different studies.
Each numbered part is a random draw from the data of one study; scales do not carry over between parts.

Block 1
Target: Ras GTPase-activating protein-binding protein 1, full length (G3BP1, Homo sapiens, UniProt Q13283)
Chain of UniProt Q13283 (whole entry, looked up): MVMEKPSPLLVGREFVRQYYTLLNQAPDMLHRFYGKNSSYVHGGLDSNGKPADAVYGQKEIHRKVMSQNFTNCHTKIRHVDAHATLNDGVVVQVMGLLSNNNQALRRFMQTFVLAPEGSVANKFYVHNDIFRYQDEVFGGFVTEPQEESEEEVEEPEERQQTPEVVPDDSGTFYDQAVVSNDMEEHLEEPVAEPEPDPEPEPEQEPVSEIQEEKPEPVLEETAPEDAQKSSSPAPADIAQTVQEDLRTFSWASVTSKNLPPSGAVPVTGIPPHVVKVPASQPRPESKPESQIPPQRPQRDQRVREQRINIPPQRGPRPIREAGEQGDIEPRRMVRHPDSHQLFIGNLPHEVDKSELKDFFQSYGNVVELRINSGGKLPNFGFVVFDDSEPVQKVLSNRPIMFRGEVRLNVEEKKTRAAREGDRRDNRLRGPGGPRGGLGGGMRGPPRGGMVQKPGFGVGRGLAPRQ
Technique: RNA Bind-n-Seq
Molecule type: RNA
Sample: in vitro
Tested at: 200 nM
Notes: whole 134-nt RNA, ends assumed
With: 150 mM KCl
Baseline: input library
Reading: higher = stronger binding
Quantity: log2 enrichment
Shared flanks, not repeated: GGGAGUUCUACAGUCCGACGAUC … UGGAAUUCUCGGGUGUCAAGG
CACAGACAACACGCACCCACACAGACACAGAAAGAAGGGGUUGGGAUGGGGACAGGGUGCACAGCAGGGCGGGGUAGGACCCCAGCCCCU: 1.8
UGGCCCUGGUGGCAUGCGGGGAGGAAGAGGUGGCUUCAUGGAUCGUGGUGGUCCCGGUGGAAUGUUCAGAGGUGGCCGUGGUGGAGACAG: 0.488
UGGAACAGCAGCUGCCACUCAGGCGUAAUUCCCACCUAGAGGAGAGUUUCACAUCCACCGAAGAAUCUUCCGAAGAAAAUGUCAACUUUU: 0.473
UCCUCAAGUCCUGUGCUACACAUCGUAUGUACCGAAUCGGUGGGGUGGGUGGAAAGUAUUAUGUUACGCCGUUCGGAUCUGCACUUCCAG: 0.336
CACAGAUAACACGCACCCACACAGACACAGAGGGAAGGGGUUGGGAUGGGGACAGGGUGCACAGCAGGGCGGGGUAGGACCCCAGCCCCU: 1.77
GCAGGAAGUAAACACAAAUGGAAAUGCUUCGGAUAGUGGCAGGGGUGGGGGUUGCUAAGGAAAGGGUGGGAUGGGAGUGGGUAAAGAGUU: 1.4
AAGUCCUGUGCUACACAUCGUAUGUACCGAAUCGGAAAGGAAAAAGGAAAAAAAGGAAAGUAUUAUGUUACGCCGUUCGGAUCUGCACUU: -1.32
AGUCCUGUGCUACACAUCGUAUGUACCGAAUCGGGAAAAAGGGAAAAAGGGUUUGGGAAAGUAUUAUGUUACGCCGUUCGGAUCUGCACU: -0.304
UGGCCCUGGUGGCAUGCGCGGAGGAAGAGGUGGCCUCAUGGAUCGUGGUGGUCCCGGUGGAAUGUUCAGAGGUGGCCGUGGUGGAGACAG: 0.14
CACAGACAACACGCACCCACACAGACACAGAGGGAAGGGGUUGGGAUGGGGACAGGGUGCACAGCAGGGCCGGGUAGGACCCCAGCCCCU: 2.02

Block 2
Target: RING finger protein unkempt homolog, zinc fingers 1-6, SBP tag (UNK, Homo sapiens, UniProt Q9C0B0, residues 30-357)
Chain of UniProt Q9C0B0 (30-357, looked up): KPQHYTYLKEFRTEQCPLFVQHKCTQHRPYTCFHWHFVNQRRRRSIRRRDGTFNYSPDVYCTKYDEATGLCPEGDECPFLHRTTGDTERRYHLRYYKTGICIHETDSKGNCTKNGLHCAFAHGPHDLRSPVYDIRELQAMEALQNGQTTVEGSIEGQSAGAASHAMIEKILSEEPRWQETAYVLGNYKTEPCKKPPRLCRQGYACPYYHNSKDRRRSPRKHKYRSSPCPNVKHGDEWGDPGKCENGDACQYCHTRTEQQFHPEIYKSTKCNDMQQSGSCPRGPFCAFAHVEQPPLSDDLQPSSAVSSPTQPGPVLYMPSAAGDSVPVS
Technique: RNA Bind-n-Seq
Molecule type: RNA
Sample: in vitro
Tested at: 100 nM
Notes: RNA with constant flanks, vertebrate orthologous sites, ends assumed
Baseline: input RNA pool
Reading: higher = stronger binding
Quantity: bound/input enrichment
Shared flanks, not repeated: GGGAGUUCUACAGUCCGACGAUC … CAACAGAGGAUUGAGCAUCA
UAGUUUUGUACAGGGCCUUCUCUGUACUAGUUUGUUGUGGUUAUAAAACAAUUAGCAAACCGGCUUACAUUUGUAUUUAUUUUCUAUUCCUUAUUUUCCCUGCCUUAUGUUUUUUCUUUC: 1.77 ratio
GGCCUCCAACAGGCAAAUUCAGGGAGGAUAGGUUUCAGGGAAUAUACAUUUAUUUAAUAUUAGUGGUCUUUAAGUGUAAACUUGAUGUAAUUGGUUUGGGAGGGGGCAGUGAUGAUGACU: 1.55 ratio
AAAUCAGUAGAAUUACAUAAUACUAAAGUUGCAGUGAAAGGAUUUCCAAGUAUGUGUUGGUAGUUACUAAAAGAAUUAUAGCUGUUAUUGCCUUGUAUUUAUAGCCCUUGUUUCAGGUUU: 1.04 ratio
AGCCAUGUUUUCACAUUUCCUGUAAAUAAUGGAUAAUCAUUUUUUUAAAAUUUUAUUUUCAAGUGCUGUUAUAACACUGUGGAUAGACCAUAAAUGUACUUGCUGAAUUCAUUCAUUUUU: 0.263 ratio
CUACUAUAAACAACUCAGGGCAGUAUUCUCGAUAUCCUUACAGUAACCUAAAUCAGGGAUUAGUUAACAAUACAGGGAUAAAUCAGAAUUUAGGCCUUACAAAUAACACUCCAAUGAAUC: 1.18 ratio
AAAUAUACUUCAUGCCAUGGACUCCAUAUCGCACCGAUACUUUGAUAGAAUAUGCUUCUUUAGAGGACUUCCAAAACGGACGCCAGCAGACAACAUAUAAACUCCCAAAUCGAGUGGAUG: 1.03 ratio
CCAGCUUAAUGAAAACUGUUUUACGACAUAUGACUUAAAAAGAAAAAGAAAGAAACAGCCUGGUUUUUGUCUGUCAAAGGAAGAGGAAAAAAAAGACCAUUGAAUCCAAAGCACACUGUA: 0.567 ratio
ACGCUUUGAUAUUAAAUUUGACAUAAGAAGCAGCUGAUUGUAAGCACAACUCUCUCCUCCUAGCCAUUUAAAAAGGUAAAAGACAAAAAAGAAAACCUACUAGUCUUGAACAAACUGUCA: 0.957 ratio
GUUGUGACCCAUUUAAUGAGCACAGAAAAUUAUCAAAGAAAAAUUUACGUGCAAUUGACUUACAUGAUGCAACUUUUCUAAGUGCCAAGUUUGGAAGACAGUUUGUACCUGGCUGGAAGC: 0.703 ratio
GUUGUGACCCAUUUAACAUACACAAGAAAUUAGCCAAAAAAAAUUUGCAUGUAAUUGACUUAGAUGAUGCCACUUUUCUGAGUGCUAAAUUUGGAAGACAGCUUGUACCUGGUUGGAAGC: 1.35 ratio
AGCAACUCAAGGAUUGAGGACUGGUUUUACAAAUAUACCAAGUAGAUAUGGAACUAAUAAUAGAAUUGGACAACCAAGACCAUGAUGGACUCUAACUUAUUUUUAUGAGGAAUAUUGACU: 0.419 ratio

Block 3
Target: Histone acetyltransferase KAT6A, winged helix 1, GST fusion (KAT6A, Homo sapiens, UniProt Q92794, residues 1-85)
Technique: protein binding microarray
Molecule type: double-stranded DNA, one strand shown
Sample: in vitro
Tested at: not given
Notes: 8-mer, flanks averaged, mean of 2 arrays, mostly near background
Baseline: not given
Reading: higher = stronger binding
Quantity: E-score
Construct (chain): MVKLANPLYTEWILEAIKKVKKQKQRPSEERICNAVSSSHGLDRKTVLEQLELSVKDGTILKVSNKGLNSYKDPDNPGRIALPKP
TAATTGGA: -0.168
GAGCTTCA: -0.102
CCCTGCAC: -0.147
GGGTCACC: 0.068
GGCTCAAA: 0.0333
CACTTAAA: -0.229
GTGACTGA: -0.143
GCCCTAAC: 0.127
AATACGAG: -0.22
TAATAGCA: -0.162
AATTCGCT: -0.074
GGATCAAC: -0.0868
GTAAGCAC: -0.103
ACTGTAGG: -0.158
CCTTTATA: -0.209
GAAACGCA: 0.0595
CTCACGAG: -0.201
ATCGTTGC: -0.139
AGGAATTC: -0.135
CAGTGCAG: -0.12
ACTAGTGA: -0.199
ACTCCGAT: 0.0444
CAGTGCCC: -0.0264

Block 4
Target: Sal-like protein 4, full length isoform A (SALL4, Homo sapiens, UniProt Q9UJQ4, residues 1-1053)
Chain of UniProt Q9UJQ4 (whole entry, looked up): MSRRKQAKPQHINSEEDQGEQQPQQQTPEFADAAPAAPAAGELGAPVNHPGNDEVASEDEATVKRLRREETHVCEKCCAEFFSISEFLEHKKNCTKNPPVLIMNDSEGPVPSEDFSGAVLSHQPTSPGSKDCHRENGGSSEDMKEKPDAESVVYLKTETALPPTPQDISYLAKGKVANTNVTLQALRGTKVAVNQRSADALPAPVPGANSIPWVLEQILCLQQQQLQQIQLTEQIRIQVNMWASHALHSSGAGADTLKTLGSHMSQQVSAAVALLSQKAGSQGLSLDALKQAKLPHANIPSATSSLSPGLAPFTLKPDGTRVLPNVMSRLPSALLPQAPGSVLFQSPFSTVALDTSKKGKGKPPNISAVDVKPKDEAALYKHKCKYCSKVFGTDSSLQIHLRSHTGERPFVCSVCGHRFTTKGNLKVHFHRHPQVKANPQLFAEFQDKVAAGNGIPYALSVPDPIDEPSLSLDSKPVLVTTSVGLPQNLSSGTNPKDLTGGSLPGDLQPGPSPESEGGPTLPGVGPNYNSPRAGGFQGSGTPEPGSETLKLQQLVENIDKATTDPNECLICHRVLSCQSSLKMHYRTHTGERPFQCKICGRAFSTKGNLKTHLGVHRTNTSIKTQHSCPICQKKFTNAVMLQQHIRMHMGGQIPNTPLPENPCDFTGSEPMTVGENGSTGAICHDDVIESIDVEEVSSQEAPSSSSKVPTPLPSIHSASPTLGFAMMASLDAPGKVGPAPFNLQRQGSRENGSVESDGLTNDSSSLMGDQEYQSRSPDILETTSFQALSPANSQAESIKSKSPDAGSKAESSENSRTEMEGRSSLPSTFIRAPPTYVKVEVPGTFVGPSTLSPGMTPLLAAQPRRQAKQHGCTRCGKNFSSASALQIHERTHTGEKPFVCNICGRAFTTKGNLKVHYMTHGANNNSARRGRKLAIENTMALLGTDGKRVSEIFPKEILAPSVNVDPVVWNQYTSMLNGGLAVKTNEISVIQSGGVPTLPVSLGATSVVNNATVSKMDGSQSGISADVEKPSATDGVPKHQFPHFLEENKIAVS
Technique: universal PBM
Molecule type: double-stranded DNA, one strand shown
Sample: in vitro
Tested at: 600 nM
Notes: 8-mer, flanks averaged, mean of replicates
Reading: higher = stronger binding
Quantity: E-score
ATTCGAGC: 0.00904
AAGATAGA: 0.087
AACCAAAT: 0.108
AAAGGGGC: -0.184
TCTACTCA: 0.0467
TCACCTCA: -0.0183
CAAATAGG: 0.0728
ACGCTACT: -0.0112
GGAAGCAC: -0.15
CCGGCACC: -0.335
ATTGACCC: -0.00277
GTACCAAA: 0.0779
AGCTAACC: -0.25
ATACCGCA: -0.0314
GACAGCGA: -0.197
GATCCCAC: -0.117
CGGCTGAC: -0.205
ATAGCCAT: 0.158
ATAGGGTG: -0.0514
AGGGGTTA: -0.187

Excerpt of the above (block 4):
ATAGGGTG: -0.0514
CAAATAGG: 0.0728
AGGGGTTA: -0.187
GTACCAAA: 0.0779
CGGCTGAC: -0.205
TCTACTCA: 0.0467
